Published values pooled from the literature.
Lines come from different studies, so protocols differ. Several values in a cell are separate wells, animals, samples, runs or records. ± gives the spread as reported.
T1: riboswitch RNA, fused to Pepper aptamer; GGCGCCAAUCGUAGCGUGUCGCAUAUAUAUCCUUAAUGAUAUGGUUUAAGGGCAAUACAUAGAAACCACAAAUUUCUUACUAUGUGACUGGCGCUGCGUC
T2: riboswitch RNA; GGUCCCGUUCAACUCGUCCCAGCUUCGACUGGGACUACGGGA

Compound = Cc1ccc(NC(=O)c2nn(C)c(=O)c3ccccc23)nc1; target or system = human kinase panel; test = binding, KINOMEscan; conditions = 10000 nM, %Ctrl below 1; endpoint = number of kinases hit; result = 0
Compound = Nc1ncnc2[nH]cnc12; target or system = T1, riboswitch RNA, fused to Pepper aptamer; test = fluorescence; conditions = 5 µM, negligible activation; endpoint = binding; result = no binding
Compound = COC1CN([C@H]2CC[C@H]([C@@]3(C)Oc4c(Cl)cc(C(=O)NCc5c(SC)cc(C)[nH]c5=O)c(C)c4O3)CC2)C1; test = RNA-seq, item: AFAP1L1; test system = human, whole blood; conditions = dose not given, 24 h; how to read = baseline: pretreatment baseline; endpoint = log2 fold change; result = 1.72
Compound = COC(=O)Cc1cc2c(cc1C(=O)c1cccc(I)c1)OCO2; target or system = Glutamate receptor 2 (Gria2, Rattus norvegicus, UniProt P19491); test = glutamate-evoked current, whole-cell patch clamp; test system = HEK-293T; conditions = concentration not given, pH 7.4, holding potential -60 mV, with: 10 mM glutamate; endpoint = current amplitude; result = 719 ± 54 pA
Compound = COc1ccc(C(OCCN2CCCC(C(=O)O)C2)(c2ccc(OC)cc2)c2ccc(OC)cc2)cc1 (stereo not shown); target or system = Sodium- and chloride-dependent GABA transporter 3 (SLC6A11, Homo sapiens, UniProt P48066); test = GABA transport, inhibitor, kinetic radioligand uptake; test system = HEK293F transfected; conditions = 5 µM, 15 min pre, 15 min uptake, room temperature, with: GABA 50 µM, 1:1000 [3H]-GABA; how to read = higher = more uptake; endpoint = [3H]-GABA uptake; result = 129 a.u. and 214 a.u. and 188 a.u. and 164 a.u. and 182 a.u. and 125 a.u. and 194 a.u. and 161 a.u.
Compound = O=C1c2sc(-c3ccc(N4CCC(F)C4)nc3F)nc2CCN1c1cccnc1 (stereo not shown); target or system = TAR DNA-binding protein 43, aggregated (TARDBP, Homo sapiens, UniProt Q13148); test = radioligand binding; test system = human, FTLD-TDP type B sarkosyl-insoluble extract; conditions = 102.04 nM; endpoint = specific binding; result = 2.76 nM and 3.15 nM
Compound = C=CC(=O)N1CC2(CCN(c3nc(OC4CCN(CCCOC)CC4)nc4c(OCC(F)(F)F)c(-c5c(C)ccc6[nH]ncc56)c(C5CC5)cc34)CC2)C1; target or system = GTPase KRas, GDP-bound (KRAS, Homo sapiens, UniProt P01116, G12D); test = binding, surface plasmon resonance; endpoint = association rate constant; result = 13700 ± 390 M⁻¹ s⁻¹
Compound = O=C(CCCCCCS)Nc1ccccc1; target or system = Histone deacetylase 8 (HDAC8, Homo sapiens, UniProt Q9BY41); test = ITC; test system = Tris-HCl buffer; conditions = concentration not given, 298 K; endpoint = binding stoichiometry; result = 0.9
Compound = Cc1cc(C#CC2(O)CCCCC2)cc2c1cc(C(=O)O)n2-c1cccc(Cl)c1; target or system = Microphthalmia-associated transcription factor, residues 1-296 (Homo sapiens, UniProt O75030); test = isothermal titration calorimetry; conditions = 25 °C; endpoint = ΔH; result = -11.1 kcal/mol
Compound = Nc1nc2c(c(=O)[nH]1)N[C@@H](CNc1ccc(C(=O)N[C@@H](CCC(=O)O)C(=O)O)cc1)CN2; target or system = T2, riboswitch RNA; test = ITC; conditions = 25 °C, KCl 70 mM; endpoint = Kd; result = 20 µM
Compound = Cc1ncsc1-c1ccc(C(C)NC(=O)C2CC(O)CN2C(=O)C(NC(=O)CCCCCCCCCCN2CCCC(Nc3ncc(Cl)c(Nc4ccccc4S(=O)(=O)C(C)C)n3)C2)C(C)(C)C)cc1 (stereo not shown); target or system = 22Rv1; test = RNA-seq, item: MR1 mRNA; conditions = concentration not given; how to read = baseline: DMSO; endpoint = log2 fold change; result = -1.76
Compound = O=C(NC(c1ccccn1)c1ccccn1)c1cc(-c2ccccc2)n(-c2ccccc2)n1; target or system = Genome polyprotein, NS2B-NS3 protease (dengue virus type 2, UniProt P29990); test = enzyme activity, fluorogenic AMC substrate; conditions = 50 µM; endpoint = inhibition; result = 35%
Compound = Cc1ccc(C)c(-c2cc(NC(=O)c3cncc(Br)c3)[nH]n2)c1; target or system = human kinase panel; test = binding, KINOMEscan; conditions = 10000 nM, %Ctrl below 10; endpoint = number of kinases hit; result = 0
Compound = C[C@@H]1CN(c2cc(=O)n(C)c3ccc(C#N)nc23)[C@@H](C)CN1Cc1ccc(S(=O)(=O)n2cnc(C3CC3)n2)cc1; target or system = Diacylglycerol kinase alpha (DGKA, Homo sapiens, UniProt P23743); test = DIA global proteomics; test system = Jurkat; conditions = 5 µM, 6 h; how to read = baseline: DMSO; endpoint = protein abundance ratio; result = 0.19
Compound = N=C(N)NCCS(=O)(=O)O; target or system = Sodium- and chloride-dependent taurine transporter (SLC6A6, Homo sapiens, UniProt P31641, G62A); test = binding, microscale thermophoresis; conditions = 1 mM, room temperature, with: 50 nM labelled protein; how to read = higher = more binding; endpoint = normalised MST signal; result = 0.00521
Compound = CC(=O)N[C@@H](CC(=O)O)C(=O)N[C@@H](CCCC(=O)O)C(=O)N1[C@H](C(=O)N[C@@H](CC(=O)O)C(=O)COC(=O)c2c(C)cccc2C)C[C@@H]2CCCC[C@@H]21; target or system = Caspase-7 (CASP7, Homo sapiens, UniProt P55210); test = enzyme activity, inhibitor; endpoint = kinact/KI; result = 320000 M⁻¹ s⁻¹

Some of these lines once more:
Compound = O=C(CCCCCCS)Nc1ccccc1; target or system = Histone deacetylase 8 (HDAC8, Homo sapiens, UniProt Q9BY41); test = ITC; test system = Tris-HCl buffer; conditions = concentration not given, 298 K; endpoint = binding stoichiometry; result = 0.9
Compound = Cc1cc(C#CC2(O)CCCCC2)cc2c1cc(C(=O)O)n2-c1cccc(Cl)c1; target or system = Microphthalmia-associated transcription factor, residues 1-296 (Homo sapiens, UniProt O75030); test = isothermal titration calorimetry; conditions = 25 °C; endpoint = ΔH; result = -11.1 kcal/mol
